Assay results from different studies.
A part holds a random share of what one study measured.
Sequence of UniProt P54760 (whole entry, looked up): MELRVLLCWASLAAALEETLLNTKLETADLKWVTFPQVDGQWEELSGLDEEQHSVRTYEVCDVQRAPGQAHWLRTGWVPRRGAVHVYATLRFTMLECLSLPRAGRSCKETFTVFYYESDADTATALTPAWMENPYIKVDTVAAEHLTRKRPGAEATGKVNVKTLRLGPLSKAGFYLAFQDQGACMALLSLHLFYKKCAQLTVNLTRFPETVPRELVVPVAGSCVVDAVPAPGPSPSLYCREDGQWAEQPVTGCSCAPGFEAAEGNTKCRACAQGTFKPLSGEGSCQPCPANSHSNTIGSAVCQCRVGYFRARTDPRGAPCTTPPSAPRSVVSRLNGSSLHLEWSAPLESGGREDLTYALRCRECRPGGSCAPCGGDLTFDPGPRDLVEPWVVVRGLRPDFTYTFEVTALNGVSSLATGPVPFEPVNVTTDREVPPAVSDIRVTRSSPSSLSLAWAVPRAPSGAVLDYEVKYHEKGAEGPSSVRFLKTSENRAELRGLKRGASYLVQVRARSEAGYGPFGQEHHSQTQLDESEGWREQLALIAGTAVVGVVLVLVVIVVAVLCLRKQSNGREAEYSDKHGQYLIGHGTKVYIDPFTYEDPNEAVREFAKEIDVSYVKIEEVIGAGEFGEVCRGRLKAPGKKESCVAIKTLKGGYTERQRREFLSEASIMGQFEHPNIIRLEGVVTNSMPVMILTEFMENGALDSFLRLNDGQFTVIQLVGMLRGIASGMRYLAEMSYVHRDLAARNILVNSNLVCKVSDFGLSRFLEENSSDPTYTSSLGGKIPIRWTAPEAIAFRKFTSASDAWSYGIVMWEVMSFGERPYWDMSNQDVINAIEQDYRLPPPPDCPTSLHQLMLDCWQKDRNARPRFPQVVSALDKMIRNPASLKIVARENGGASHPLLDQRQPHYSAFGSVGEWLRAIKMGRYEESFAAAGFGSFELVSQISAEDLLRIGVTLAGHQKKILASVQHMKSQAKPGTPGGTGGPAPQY
Sequence of UniProt O14578 (whole entry, looked up): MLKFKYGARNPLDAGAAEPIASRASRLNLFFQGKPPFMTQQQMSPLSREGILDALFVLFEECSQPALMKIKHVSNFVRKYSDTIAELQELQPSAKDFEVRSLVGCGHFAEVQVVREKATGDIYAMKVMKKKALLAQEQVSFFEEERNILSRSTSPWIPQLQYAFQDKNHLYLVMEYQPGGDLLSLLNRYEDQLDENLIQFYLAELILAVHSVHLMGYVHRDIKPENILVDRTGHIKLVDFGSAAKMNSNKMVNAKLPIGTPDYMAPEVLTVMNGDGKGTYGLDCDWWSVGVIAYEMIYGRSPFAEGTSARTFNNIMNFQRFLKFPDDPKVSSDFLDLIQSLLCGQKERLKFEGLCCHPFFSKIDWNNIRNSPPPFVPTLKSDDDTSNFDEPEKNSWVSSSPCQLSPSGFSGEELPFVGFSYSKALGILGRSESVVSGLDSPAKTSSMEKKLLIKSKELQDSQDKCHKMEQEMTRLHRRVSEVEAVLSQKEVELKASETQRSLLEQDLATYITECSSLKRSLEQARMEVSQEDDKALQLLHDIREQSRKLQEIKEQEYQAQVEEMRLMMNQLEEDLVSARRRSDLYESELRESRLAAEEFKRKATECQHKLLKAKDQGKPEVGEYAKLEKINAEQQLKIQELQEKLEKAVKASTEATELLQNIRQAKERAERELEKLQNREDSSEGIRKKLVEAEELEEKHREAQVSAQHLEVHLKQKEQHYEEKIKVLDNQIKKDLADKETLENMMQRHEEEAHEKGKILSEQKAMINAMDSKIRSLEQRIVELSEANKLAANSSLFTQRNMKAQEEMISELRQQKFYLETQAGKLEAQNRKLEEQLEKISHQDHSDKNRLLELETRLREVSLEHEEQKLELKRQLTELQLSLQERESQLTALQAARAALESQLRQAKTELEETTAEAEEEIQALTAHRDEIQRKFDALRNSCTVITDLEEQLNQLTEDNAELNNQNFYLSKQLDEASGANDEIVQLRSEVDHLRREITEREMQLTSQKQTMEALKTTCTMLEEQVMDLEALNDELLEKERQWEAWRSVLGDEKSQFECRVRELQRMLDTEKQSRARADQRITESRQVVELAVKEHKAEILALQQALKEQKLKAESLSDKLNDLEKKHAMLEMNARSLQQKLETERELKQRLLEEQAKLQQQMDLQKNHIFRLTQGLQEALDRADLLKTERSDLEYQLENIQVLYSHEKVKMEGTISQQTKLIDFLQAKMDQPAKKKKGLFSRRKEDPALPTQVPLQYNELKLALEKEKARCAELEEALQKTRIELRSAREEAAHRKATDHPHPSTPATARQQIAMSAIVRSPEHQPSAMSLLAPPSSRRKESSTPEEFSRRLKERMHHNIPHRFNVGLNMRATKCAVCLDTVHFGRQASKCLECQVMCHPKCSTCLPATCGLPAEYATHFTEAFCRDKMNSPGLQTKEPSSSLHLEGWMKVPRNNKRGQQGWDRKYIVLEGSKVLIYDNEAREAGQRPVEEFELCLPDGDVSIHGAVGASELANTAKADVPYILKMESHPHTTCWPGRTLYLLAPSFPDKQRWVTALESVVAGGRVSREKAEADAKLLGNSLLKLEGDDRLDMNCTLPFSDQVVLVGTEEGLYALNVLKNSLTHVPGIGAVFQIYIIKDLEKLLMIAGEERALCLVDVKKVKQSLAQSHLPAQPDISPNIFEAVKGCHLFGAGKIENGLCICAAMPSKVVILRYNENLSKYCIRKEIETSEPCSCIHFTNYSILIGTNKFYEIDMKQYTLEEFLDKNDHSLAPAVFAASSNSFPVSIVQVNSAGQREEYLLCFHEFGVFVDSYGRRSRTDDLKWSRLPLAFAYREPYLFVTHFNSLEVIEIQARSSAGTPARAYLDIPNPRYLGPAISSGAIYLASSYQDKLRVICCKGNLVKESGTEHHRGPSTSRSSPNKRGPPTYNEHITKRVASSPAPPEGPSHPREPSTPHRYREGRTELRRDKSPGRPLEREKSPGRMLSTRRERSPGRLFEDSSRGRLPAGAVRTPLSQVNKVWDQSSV

Study 1
Target: Inhibitor of nuclear factor kappa-B kinase subunit epsilon (IKBKE, Homo sapiens, UniProt Q14164)
Read-out: enzyme activity
Action: inhibitor
Concentration: 0.5 µM
Relative to: control
Measurement: remaining activity
Construct (Q14164 1-716): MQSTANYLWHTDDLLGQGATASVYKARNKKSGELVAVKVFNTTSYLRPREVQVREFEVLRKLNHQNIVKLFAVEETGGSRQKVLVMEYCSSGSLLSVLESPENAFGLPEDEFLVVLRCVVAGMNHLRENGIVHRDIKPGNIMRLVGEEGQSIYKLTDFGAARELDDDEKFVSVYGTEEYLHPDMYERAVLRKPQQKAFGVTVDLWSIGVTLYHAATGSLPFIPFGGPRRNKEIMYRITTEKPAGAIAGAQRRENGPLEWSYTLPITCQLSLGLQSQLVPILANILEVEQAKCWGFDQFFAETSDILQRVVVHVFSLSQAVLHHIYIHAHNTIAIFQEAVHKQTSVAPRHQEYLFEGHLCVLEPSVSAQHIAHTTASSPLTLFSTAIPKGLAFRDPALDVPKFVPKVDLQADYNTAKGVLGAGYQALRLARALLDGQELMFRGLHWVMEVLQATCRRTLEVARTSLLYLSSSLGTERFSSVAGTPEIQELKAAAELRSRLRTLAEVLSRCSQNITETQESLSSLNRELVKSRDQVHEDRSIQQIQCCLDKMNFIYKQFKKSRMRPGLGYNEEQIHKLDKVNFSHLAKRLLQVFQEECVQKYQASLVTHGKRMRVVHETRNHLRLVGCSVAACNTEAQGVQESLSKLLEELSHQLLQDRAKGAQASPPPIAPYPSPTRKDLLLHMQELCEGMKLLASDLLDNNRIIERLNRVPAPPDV
Cn1sc(=O)n(Cc2ccccc2)c1=O: 96.4%
CCOC(=O)c1c(C)[nH]c(/C=C2\C(=O)Nc3ccccc32)c1C: 93.5%
Cc1cccc(-c2[nH]c(C(C)(C)C)nc2-c2ccc3c(c2)OCO3)n1: 91.8%
O=C1NC(=O)C(c2cn(CCCn3ccnc3)c3ccccc23)=C1Nc1ccccc1: 87%
Cc1ccc(NC(=O)c2ccc(CN3CCN(C)CC3)cc2)cc1Nc1nc(-c2cccnc2)cs1: 97.2%
COc1cc2ncnc(Nc3ccc(F)c(Cl)c3)c2cc1OCCCN1CCOCC1: 89.8%
Cn1c2ccccc2c2c3c(c4c5ccccc5n(CCC#N)c4c21)CNC3=O: 69.4%
CNC(=O)c1cc(Oc2ccc(NC(=O)Nc3ccc(Cl)c(C(F)(F)F)c3)cc2)ccn1: 89.8%
Cc1nc(-c2ccccc2)c(-c2ccncc2)o1: 102%
COc1ccc(C(=O)Nc2sc3c(c2C(N)=O)CCCC3)cc1OC: 106%
COc1cc2nccc(Oc3ccc(NC(=S)NC(=O)c4ccccc4C)cc3)c2cc1OC: 96.2%
Cc1ccc(Nc2nccc(N(C)c3ccc4c(C)n(C)nc4c3)n2)cc1S(N)(=O)=O: 87%
Nc1[nH]nc2nc3ccccc3nc12: 99.4%

Study 2
Host: human
Medium: microsomes or S9
Concentration: 2 µM
Time: 0.5 h
Measurement: remaining compound
O=C1c2[nH]nc(-c3ccccc3)c2C(c2ccccn2)N1CCc1c[nH]c2ccccc12 (stereo not shown): 10.9%
CCCc1ncncc1C(=O)N1CC[C@@](O)(c2ccccc2)[C@H]2CCCC[C@@H]21: 1.1%
CCCCCOC(=O)C1[C@H]2C(=O)N(CCCOC)C[C@]23C=C[C@H]1O3 (stereo partly shown): 26.9%
O=C(NCc1cccc(F)c1)c1c(OCC2CC2)cc(=O)n2c1CCCCC2: 19.9%
Cc1cccc(C(O)(C(=O)NNc2ccc(Br)cn2)c2cccc(C)c2)c1: 10.7%
Nc1nc2n(c1C(=O)c1ccc(Br)cc1)CCCC2: 96.5%
CC(c1cccc(O)c1)N(C)S(=O)(=O)c1ccc2cn[nH]c2c1 (stereo not shown): 70.9%

Study 3
SMILES: COc1ccc2c(c1)O[C@@H](c1ccc(OC)c(OC)c1)C[C@H]2NC(=O)C1(c2ccc3c(c2)OC(F)(F)O3)CC1
Read-out: cell-free assay
Technique: competition with immobilised ligand
Concentration: 1 µM
Measurement: remaining binding
FLT3 (Homo sapiens, UniProt P36888, F691L/ITD): 76%
GAK (Homo sapiens, UniProt O14976): 100%
DDR1 (Homo sapiens, UniProt Q08345): 100%
CIT (Homo sapiens, UniProt O14578): 90%
EPHB4 (Homo sapiens, UniProt P54760): 91%
LTK (Homo sapiens, UniProt P29376): 100%
SRC (Homo sapiens, UniProt P12931): 100%

Study 4
SMILES: CC(C)n1cnc(-c2ccc(F)cc2)c1-c1ncc(C(=O)Nc2ccc(N3CCN(C)CC3)cc2)[nH]1
Technique: Phase 2a trial
Host: idiopathic pulmonary fibrosis patients
Measurement: patients with adverse events
refers to: blood bilirubin increased; dose not given, grade 2 maximum intensity, all arms: 0%
refers to: bile acids increased; 30 mg once daily, grade 5 maximum intensity: 0%
refers to: blood alkaline phosphatase increased; 60 mg once daily, grade 3 maximum intensity: 0%
refers to: tri-iodothyronine increased; 60 mg once daily, grade 3 maximum intensity: 0%
refers to: neutrophil count increased; 30 mg once daily, grade 4 maximum intensity: 0%
refers to: blood bilirubin increased; 60 mg once daily, grade 3 maximum intensity: 0%
refers to: tri-iodothyronine increased; 30 mg once daily, grade 3 maximum intensity: 0%

Some of these lines once more (study 1):
Cc1cccc(-c2[nH]c(C(C)(C)C)nc2-c2ccc3c(c2)OCO3)n1: 91.8%
O=C1NC(=O)C(c2cn(CCCn3ccnc3)c3ccccc23)=C1Nc1ccccc1: 87%
Cc1ccc(NC(=O)c2ccc(CN3CCN(C)CC3)cc2)cc1Nc1nc(-c2cccnc2)cs1: 97.2%
COc1cc2ncnc(Nc3ccc(F)c(Cl)c3)c2cc1OCCCN1CCOCC1: 89.8%
Cn1c2ccccc2c2c3c(c4c5ccccc5n(CCC#N)c4c21)CNC3=O: 69.4%
